Results collected from several papers.
Several values in a cell are separate wells, animals, samples, runs or records. ± marks the error that the study gave.
APP: Amyloid-beta precursor protein (APP, Homo sapiens, UniProt P05067)
MAPK14: Mitogen-activated protein kinase 14 (MAPK14, Homo sapiens, UniProt Q16539)
Sequence of UniProt Q16539 (whole entry, looked up): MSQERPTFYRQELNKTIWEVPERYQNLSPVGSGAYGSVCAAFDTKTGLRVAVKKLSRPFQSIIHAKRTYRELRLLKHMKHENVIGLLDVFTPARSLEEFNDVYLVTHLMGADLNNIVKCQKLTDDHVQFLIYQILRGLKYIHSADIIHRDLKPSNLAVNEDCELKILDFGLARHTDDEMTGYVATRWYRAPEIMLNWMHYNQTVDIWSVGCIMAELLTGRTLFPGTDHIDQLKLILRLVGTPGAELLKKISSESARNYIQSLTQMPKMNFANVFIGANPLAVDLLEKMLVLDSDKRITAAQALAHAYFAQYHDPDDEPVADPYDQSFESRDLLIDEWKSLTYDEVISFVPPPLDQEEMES
Sequence of UniProt Q5VWZ2 (whole entry, looked up): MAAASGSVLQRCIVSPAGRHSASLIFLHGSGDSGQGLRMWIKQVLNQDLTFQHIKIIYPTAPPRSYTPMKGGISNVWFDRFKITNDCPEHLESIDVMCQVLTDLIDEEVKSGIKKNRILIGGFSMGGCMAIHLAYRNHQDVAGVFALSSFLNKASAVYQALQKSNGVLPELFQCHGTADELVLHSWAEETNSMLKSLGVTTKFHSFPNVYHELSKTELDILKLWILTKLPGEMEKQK
Sequence of UniProt O95835 (whole entry, looked up): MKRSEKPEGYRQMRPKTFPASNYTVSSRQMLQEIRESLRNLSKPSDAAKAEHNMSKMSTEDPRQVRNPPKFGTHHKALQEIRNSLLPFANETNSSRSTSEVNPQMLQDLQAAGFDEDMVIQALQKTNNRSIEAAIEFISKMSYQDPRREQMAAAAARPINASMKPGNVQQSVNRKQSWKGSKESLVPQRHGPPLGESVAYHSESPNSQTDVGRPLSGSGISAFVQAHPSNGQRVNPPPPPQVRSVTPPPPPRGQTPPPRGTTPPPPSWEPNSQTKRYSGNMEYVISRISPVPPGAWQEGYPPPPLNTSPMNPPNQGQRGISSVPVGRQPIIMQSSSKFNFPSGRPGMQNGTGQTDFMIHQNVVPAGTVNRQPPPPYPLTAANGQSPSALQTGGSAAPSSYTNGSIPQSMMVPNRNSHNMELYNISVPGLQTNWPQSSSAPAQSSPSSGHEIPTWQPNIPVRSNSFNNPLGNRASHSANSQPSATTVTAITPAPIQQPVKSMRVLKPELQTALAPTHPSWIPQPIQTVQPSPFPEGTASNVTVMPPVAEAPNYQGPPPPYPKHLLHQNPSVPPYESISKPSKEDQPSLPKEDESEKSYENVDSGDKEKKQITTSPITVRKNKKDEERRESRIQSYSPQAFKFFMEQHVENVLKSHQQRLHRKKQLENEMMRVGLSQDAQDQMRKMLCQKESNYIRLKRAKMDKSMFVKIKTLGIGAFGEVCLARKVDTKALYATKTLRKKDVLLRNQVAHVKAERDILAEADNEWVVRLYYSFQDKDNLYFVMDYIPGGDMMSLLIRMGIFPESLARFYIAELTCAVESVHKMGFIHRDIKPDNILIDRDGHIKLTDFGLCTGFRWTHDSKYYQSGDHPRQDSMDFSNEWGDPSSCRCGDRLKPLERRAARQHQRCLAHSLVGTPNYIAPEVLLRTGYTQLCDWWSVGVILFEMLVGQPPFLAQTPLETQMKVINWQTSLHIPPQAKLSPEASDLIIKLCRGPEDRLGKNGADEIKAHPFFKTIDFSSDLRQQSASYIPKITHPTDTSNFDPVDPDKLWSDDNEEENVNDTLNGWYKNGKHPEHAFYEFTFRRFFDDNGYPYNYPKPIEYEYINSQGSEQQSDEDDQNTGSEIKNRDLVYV

| SMILES | target or system | assay | test system | setting | scale | measurement | value |
| --- | --- | --- | --- | --- | --- | --- | --- |
| O=C(Nc1cnccc1Cl)N1CCN(Cc2ccc3c(c2)OC(F)(F)O3)CC1 | EGF receptor |  |  | concentration not given |  | inhibition | -7% and -1% |
| COc1ccc(N2C(=O)N(c3c(C)cccc3Cl)Cc3cnc(Nc4ccc(C5CCN(C)CC5)cc4OC)nc32)nc1 | Receptor tyrosine-protein kinase erbB-2 (ERBB2, Homo sapiens, UniProt P04626) | kinase activity |  | 0.5 µM |  | inhibition | 53% |
| C[C@H](C(=O)N[C@H]1COc2ccccc2[C@@H]1S(C)(=O)=O)c1ccc(F)cc1 | Cyclin-dependent kinase 3, with cyclin E (CDK3, Homo sapiens, UniProt Q00526) | enzyme activity |  | 10 µM, Eurofins selectivity panel |  | inhibition | -5% |
| Nc1c2c(nc3c1C(c1ccc(Cl)c(Cl)c1)c1ccc(OCC(=O)c4ccccc4)cc1O3)CCCC2 (stereo not shown) | APP | Aβ42 self-aggregation, inhibitor, thioflavin T fluorescence |  | 100 µM |  | inhibition | 86% |
| O=C(c1ccc(Cl)cc1)N1CCN2C(=O)N(OC(=O)N3CCOc4ccccc43)C(=O)C2C1 (stereo not shown) | Lysophospholipase-like protein 1 (LYPLAL1, Homo sapiens, UniProt Q5VWZ2) | enzyme activity, inhibitor, MS-based ABPP | SW-620 in situ | 10 µM, 2 h, 37 °C | baseline: compound over DMSO, lower = stronger inhibition | median ratio | 1.14 |
| N=C(N)Nc1ccc2c(c1)B(O)OC2 | Genome polyprotein, NS2B-NS3 protease (dengue virus type 2, UniProt P29990) | enzyme activity, FRET | dengue virus serotype 2 | 50 µM, added: substrate 50 µM |  | inhibition | 21 ± 8% |
| O=c1[nH]c2sc(-c3ccc(Cl)cc3)cc2c(=O)n1O | Tripartite terminase subunit 3, C-terminal nuclease domain (Human betaherpesvirus 5, UniProt P16732) | endonuclease activity, ELISA |  | 20 µM, added: dsDNA |  | inhibition | 97% |
| C[C@@H]1N=C(c2ccccc2F)c2cc(Br)ccc2-n2cnc(C(=O)O)c21 | peripheral benzodiazepine receptor | binding |  | 10 µM |  | inhibition | 23.3 ± 8.5% |
| Nc1c2c(nc3c1C(c1cccc([N+](=O)[O-])c1)c1ccc(OCC(=O)c4ccc(Cl)cc4)cc1O3)CCCC2 (stereo not shown) | APP | Aβ42 self-aggregation, inhibitor, thioflavin T fluorescence |  | 0.01 µM |  | inhibition | 6.4% |
| COc1cc2c(Oc3ccc4[nH]c(C)cc4c3F)ccnc2cc1OCC1(N)CC1 |  |  | paediatric recurrent refractory sarcoma | 10 mg |  | grade 3 Hematuria | 0% |
| CN(C(=O)n1cnc(-c2ccc[n+]([O-])c2)c1)C1CCCCC1 | Tyrosine-protein kinase ZAP-70 (ZAP70, Homo sapiens, UniProt P43403) | kinase activity |  | 10 µM, added: poly(Glu,Tyr) |  | inhibition | 8% |
| O=C(Nc1ccccc1)Nc1ccc2c(c1)B(O)OC2 | Genome polyprotein, NS2B-NS3 protease (dengue virus type 2, UniProt P29990) | enzyme activity, FRET | dengue virus serotype 2 | 50 µM, added: substrate 50 µM |  | inhibition | ≤ 10% |
| FC(F)(F)c1cccc(Nc2nc(NCCOc3ccccc3)nc3[nH]cnc23)c1 | MAPK14 | kinase activity, Z'-LYTE |  | 5 µM |  | inhibition | 3% |
| C[C@H]1CN(c2n[nH]c3nc(N[C@H]4CC[C@H](NS(=O)(=O)CCC(F)(F)F)CC4)ncc23)CCO1 | MAPK14 | Kinobeads competition | HEK293, K562, placenta lysate | 0.8 µM, unit not given | baseline: vehicle | remaining binding | 0.69 |
| CN1CC[C@@H](c2c(O)cc(O)c3c(=O)cc(-c4ccc(C(F)(F)F)cc4Cl)oc23)[C@@H]1CO |  | refers to: Fatigue | B-cell malignancies | oral, 100 mg, intermittent dosing |  | patients with adverse event | 33.3% |
| O=C(Nc1cccnn1)N1CCC(=Cc2cccc(Oc3ccc(C(F)(F)F)cn3)c2)CC1 | Vasopressin V2 receptor (AVPR2, Homo sapiens, UniProt P30518) | binding |  | 10 µM, added: [3H][Arg8]vasopressin |  | inhibition | 4% |
| CC[C@H](C)[C@H](NC(=O)[C@H](Cc1ccccc1)NC(=O)[C@H](CCC(=O)O)NC(=O)[C@H](CCCNC(=N)N)NC(=O)[C@H](C)NC(=O)[C@H](C)NC(=O)[C@H](CCC(N)=O)NC(=O)[C@H](CCC(=O)O)NC(=O)[C@H](CCC(=O)O)NC(=O)[C@H](CC(C)C)NC(=O)[C@H](Cc1ccc(O)cc1)NC(=O)[C@H](CO)NC(=O)[C@H](CO)NC(=O)[C@@H](NC(=O)[C@H](CC(=O)O)NC(=O)[C@H](CO)NC(=O)[C@@H](NC(=O)[C@H](Cc1ccccc1)NC(=O)[C@@H](NC(=O)CNC(=O)[C@H](CCC(=O)O)NC(=O)[C@H](C)NC(=O)CCc1c[nH]cn1)[C@@H](C)O)[C@@H](C)O)C(C)C)C(=O)N[C@@H](C)C(=O)N[C@@H](Cc1c[nH]c2ccccc12)C(=O)N[C@@H](CC(C)C)C(=O)N[C@H](C(=O)N[C@@H](CCCNC(=N)N)C(=O)NCC(=O)N[C@@H](CCCNC(=N)N)C(=O)N[C@@H](CCCCNC(=O)COCCOCCNC(=O)COCCOCCNC(=O)CC[C@H](NC(=O)CCCCCCCCCCCCCCCCC(=O)O)C(=O)O)C(=O)NCC(=O)NCC(=O)N[C@@H](CO)C(=O)N[C@@H](CCCCNc1c(NCCCCCN(O)C(=O)CCC(=O)NCCCCCN(O)C(=O)CCC(=O)NCCCCCN(O)C(C)=O)c(=O)c1=O)C(=O)O)C(C)C [zirconium-89 labelled] |  | gamma counting | rat, stomach-duodenum | subcutaneous, 3 nmol/kg, 24 h |  | tissue uptake | 0.37 %ID/g |
| O=C(Nc1cccc(B(O)O)c1)c1cccc(OCc2ccccc2)c1 | Genome polyprotein, NS2B-NS3 protease (West Nile virus, UniProt P06935) | enzyme activity, FRET |  | 50 µM, added: substrate 50 µM |  | inhibition | ≤ 10% |
| CO[C@H]1C[C@@H]2CC[C@@H](C)[C@@](O)(O2)C(=O)C(=O)N2CCCC[C@H]2C(=O)O[C@H]([C@H](C)C[C@@H]2CC[C@@H](OC(=O)NCCOCCOCCOCCOCCOCCOCCOCCOCCC(=O)N3CCc4cc(Cn5nc(-c6ccc7oc(N)nc7c6)c6c(N)ncnc65)ccc4C3)[C@H](OC)C2)C[C@@H](O)[C@H](C)/C=C(\C)[C@@H](O)[C@@H](OC)C(=O)[C@H](C)C[C@H](C)/C=C/C=C/C=C/1C |  | phase 1 dose escalation | advanced solid tumour patients | intravenous, 10 mg weekly, any grade |  | any TRAE incidence | 87.5% |
| COc1cc(Nc2ncc(F)c(Nc3ccc4c(n3)NC(=O)C(C)(C)O4)n2)cc(OC)c1OC | Serine/threonine-protein kinase LATS1 (LATS1, Homo sapiens, UniProt O95835) | KINOMEscan |  | 10 µM |  | inhibition | 39% |
| Nc1ncnc2c1ncn2[C@@H]1O[C@H](C[C@@H](N)CC[C@H](N)C(=O)O)[C@@H](O)[C@H]1O | Genome polyprotein, NS5 methyltransferase domain (Zika virus, UniProt Q32ZE1) | NS5 enzyme activity, inhibitor |  | 25 µM |  | inhibition | 87.3% |
| Cc1cc(C)cc(COc2cc3c(cc2OCc2cc(C)cc(C)c2)[C@H]2C[C@](O)(Cc4cn(CC(=O)Nc5ccc(S(=O)(=O)F)cc5)nn4)C[C@H](C)N2CC3)c1 | Rab GDP dissociation inhibitor beta, with Rab1A (Homo sapiens, UniProt P50395) | GDI2-Rab1A interaction, NanoLuc complementation |  | 6.25 µM |  | inhibition | 92.9% |
| C[C@@H](O)[C@@H](CO)NC(=O)[C@@H](CCCNC(=N)N)NC(=O)[C@@H]1CCCN1C(=O)[C@@H]1CSSC[C@H](NC(=O)[C@H](Cc2ccccc2)NC(=O)CN2CCN(CC(=O)O)CCN(CC(=O)O)CCN(CC(=O)O)CC2)C(=O)N[C@@H](Cc2ccc(O)cc2)C(=O)N[C@@H](Cc2ccccc2)C(=O)N[C@@H](CCC(N)=O)C(=O)N[C@@H](CC(N)=O)C(=O)N1 [gallium-68 labelled] |  |  | healthy Wistar rat, muscle | intravenous, 8 MBq, 120 min, individual animals |  | tissue uptake | 0.07 %ID/g |
| CC[C@H](C)[C@@H]1NC(=O)[C@@H]2CCCN2C(=O)[C@H](CC(C)C)NC(=O)[C@H](CC(C)C)NC(=O)CNC(=O)[C@@H](NC(=O)[C@@H](NC(=O)[C@H](CC(=O)O)NC(=O)CNC(=O)[C@@H](NC(=O)[C@H](C)NC(=O)CNC(=O)[C@H](CCCCN)NC(=O)[C@H](CC(C)C)NC(=O)[C@H](CC(C)C)NC(=O)[C@H](CCCCN)NC(=O)CNC(=O)[C@@H](NC(=O)[C@@H](N)CC(C)C)C(C)C)C(C)C)C(C)C)CSSC[C@@H](C(=O)O)NC1=O |  | RNA-seq, refers to: Zfp54 mRNA | mouse traumatic brain injury, frontal cortex and hippocampus | dose not given | baseline: TBI plus compound vs TBI | log2 fold change | 1.26 |
| CN(c1ccc2c(c1)B(O)OC2)S(=O)(=O)c1ccc(Cl)cc1 | Genome polyprotein, NS2B-NS3 protease (dengue virus type 2, UniProt P29990) | enzyme activity, FRET | dengue virus serotype 2 | 50 µM, added: substrate 50 µM |  | inhibition | 19 ± 7% |

Some of these lines once more:
| SMILES | target or system | assay | test system | setting | scale | measurement | value |
| --- | --- | --- | --- | --- | --- | --- | --- |
| CC[C@H](C)[C@H](NC(=O)[C@H](Cc1ccccc1)NC(=O)[C@H](CCC(=O)O)NC(=O)[C@H](CCCNC(=N)N)NC(=O)[C@H](C)NC(=O)[C@H](C)NC(=O)[C@H](CCC(N)=O)NC(=O)[C@H](CCC(=O)O)NC(=O)[C@H](CCC(=O)O)NC(=O)[C@H](CC(C)C)NC(=O)[C@H](Cc1ccc(O)cc1)NC(=O)[C@H](CO)NC(=O)[C@H](CO)NC(=O)[C@@H](NC(=O)[C@H](CC(=O)O)NC(=O)[C@H](CO)NC(=O)[C@@H](NC(=O)[C@H](Cc1ccccc1)NC(=O)[C@@H](NC(=O)CNC(=O)[C@H](CCC(=O)O)NC(=O)[C@H](C)NC(=O)CCc1c[nH]cn1)[C@@H](C)O)[C@@H](C)O)C(C)C)C(=O)N[C@@H](C)C(=O)N[C@@H](Cc1c[nH]c2ccccc12)C(=O)N[C@@H](CC(C)C)C(=O)N[C@H](C(=O)N[C@@H](CCCNC(=N)N)C(=O)NCC(=O)N[C@@H](CCCNC(=N)N)C(=O)N[C@@H](CCCCNC(=O)COCCOCCNC(=O)COCCOCCNC(=O)CC[C@H](NC(=O)CCCCCCCCCCCCCCCCC(=O)O)C(=O)O)C(=O)NCC(=O)NCC(=O)N[C@@H](CO)C(=O)N[C@@H](CCCCNc1c(NCCCCCN(O)C(=O)CCC(=O)NCCCCCN(O)C(=O)CCC(=O)NCCCCCN(O)C(C)=O)c(=O)c1=O)C(=O)O)C(C)C [zirconium-89 labelled] |  | gamma counting | rat, stomach-duodenum | subcutaneous, 3 nmol/kg, 24 h |  | tissue uptake | 0.37 %ID/g |
